Measurements of several laboratories.
“And” joins repeats or separate records; there may be more than shown. ± gives the spread as reported. ≈ marks a conversion by molar mass, not a printed value.
FFAR4: Free fatty acid receptor 4 (FFAR4, Homo sapiens, UniProt Q5NUL3)
UniProt Q5NUL3, sequence (whole entry, looked up): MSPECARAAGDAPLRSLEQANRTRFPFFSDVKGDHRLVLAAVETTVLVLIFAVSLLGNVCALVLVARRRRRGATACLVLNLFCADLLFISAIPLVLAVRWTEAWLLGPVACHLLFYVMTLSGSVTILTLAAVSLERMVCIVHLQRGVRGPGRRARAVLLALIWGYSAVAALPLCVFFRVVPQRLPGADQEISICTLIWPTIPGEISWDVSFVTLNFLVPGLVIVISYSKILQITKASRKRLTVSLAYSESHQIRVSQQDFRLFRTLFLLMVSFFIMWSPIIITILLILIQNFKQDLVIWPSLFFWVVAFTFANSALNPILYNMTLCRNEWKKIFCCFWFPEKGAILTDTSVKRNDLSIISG
UniProt Q15418, sequence (whole entry, looked up): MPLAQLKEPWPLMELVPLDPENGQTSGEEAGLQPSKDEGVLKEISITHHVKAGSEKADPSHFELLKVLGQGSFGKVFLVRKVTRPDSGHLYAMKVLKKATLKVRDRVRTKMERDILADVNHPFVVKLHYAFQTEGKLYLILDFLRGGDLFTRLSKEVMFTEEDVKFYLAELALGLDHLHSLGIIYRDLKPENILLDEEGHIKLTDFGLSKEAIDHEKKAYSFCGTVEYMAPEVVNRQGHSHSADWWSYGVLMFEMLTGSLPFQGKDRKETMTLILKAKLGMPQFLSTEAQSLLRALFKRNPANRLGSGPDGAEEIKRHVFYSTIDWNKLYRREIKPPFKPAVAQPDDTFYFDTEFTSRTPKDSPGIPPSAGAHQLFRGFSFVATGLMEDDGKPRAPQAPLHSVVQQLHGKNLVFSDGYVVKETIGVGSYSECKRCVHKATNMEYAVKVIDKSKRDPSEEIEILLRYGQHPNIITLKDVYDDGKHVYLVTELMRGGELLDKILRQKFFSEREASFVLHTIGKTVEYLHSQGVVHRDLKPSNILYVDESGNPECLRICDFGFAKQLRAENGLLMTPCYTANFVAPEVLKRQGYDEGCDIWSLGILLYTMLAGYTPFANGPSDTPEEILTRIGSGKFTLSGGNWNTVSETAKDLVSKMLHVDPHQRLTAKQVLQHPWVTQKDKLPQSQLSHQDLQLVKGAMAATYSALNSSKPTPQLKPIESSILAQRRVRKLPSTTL

SMILES	tested on	test	system	conditions	how to read	measurement	value
CCOc1c([C@H](C)n2nc(C)c3c(N)ncnc32)cc(Cl)c(F)c1[C@@H]1CNC(=O)C1		refers to: QRS ≤ 100 ms	previously treated B-cell malignancy	oral, dose not given, baseline below thresholds, all doses		share of patients	98.1%
OC[C@H]1OC(O)[C@H](O)[C@@H](O)[C@@H]1O (stereo partly shown)			aqueous solution	50 mM, with: glucosamine		osmolality	46 mOsmol/kg
Oc1cccc(O)c1O			broiler chickens, serum	oral, in feed, 2000 mg/kg feed, chestnut tannin diet		detection in serum	not detected
CNc1ccc(-c2nc3ccc(O)cc3s2)cc1 [carbon-11 labelled]		ex vivo biodistribution	APP/PS1 mouse, AD model, hippocampus	intravenous, 30 min		SUV	0.204 ± 0.12
O=C(O)CCC(=O)O.[2H]C([2H])([2H])Oc1cc(C)c2[nH]ccc2c1CN1CC[C@@H](C2CC2)C[C@H]1c1ccc(C(=O)O)cc1			healthy Chinese subjects	50 mg, single ascending dose		TEAE urine bacteria positive	0%
Cc1ccc(Sc2ccccc2N2CCNCC2)c(C)c1			healthy adult men	oral, 10 mg single dose, treatment-emergent adverse events		diarrhoea incidence	0%
O=C(Nc1nc2cccc(-c3ccc(CN4CCS(=O)(=O)CC4)cc3)n2n1)C1CC1		refers to: food allergy	human rheumatoid arthritis patients	oral, 150 mg once daily, 4 weeks, regardless of relatedness		treatment-emergent adverse events	0%
CC(C)C[C@H](NC(=O)C[C@H](O)[C@H](CC(C)C)NC(=O)[C@H](Cc1c[nH]cn1)NC(=O)CNC(=O)[C@@H](NC(=O)[C@H](C)NC(=O)[C@H](Cc1c[nH]c2ccccc12)NC(=O)[C@H](CCC(N)=O)NC(=O)[C@@H](Cc1ccccc1)NC(=O)COCCOCCNC(=O)CCC(C(=O)O)N1CCN(CC(=O)O)CCN(CC(=O)O)CC1)C(C)C)C(N)=O (stereo partly shown) [lutetium-177 labelled]			female BALB/c nu/nu mice, blood	intravenous, 50 pmol, 24 h		tissue uptake	0.0108 ± 0.0004 %ID/g
Cc1cc(Nc2ncnc3ccc(NC4=NC(C)(C)CO4)cc23)ccc1Oc1ccn2ncnc2c1			human, plasma	oral, 300 mg, day 1, single dose alone		AUC(0-inf), geometric mean	2030 ng·h/mL
CC1(C)CCC(CN2CCN(c3ccc(C(=O)NS(=O)(=O)c4ccc(NCC5CCOCC5)c([N+](=O)[O-])c4)c(Oc4cnc5[nH]ccc5c4)c3)CC2)=C(c2ccc(Cl)cc2)C1		UPLC-MS/MS	non-responders	oral, dose not given, 6 h, normalised to dose per body weight		dose-normalised C6 (C6/D)	0.32
CC1(C)CCC(c2ccc(Cl)cc2)=C(CN2CCN(c3ccc(C(=O)NS(=O)(=O)c4ccc(N[C@H](CCN5CCOCC5)CSc5ccccc5)c(S(=O)(=O)C(F)(F)F)c4)cc3)CC2)C1	C2BBe1 monolayers			50 % saturated solubility, 2 h, basolateral fractions 1-10, with: oleic acid/monoolein micelles		drug secreted with TRL	7.6 ± 6.1%
CC[C@@H]1[C@H](F)C(=O)N[C@@H]1COc1nccc2cc(C(N)=O)c(OC)cc12	Ribosomal protein S6 kinase alpha-1 (RPS6KA1, Homo sapiens, UniProt Q15418)	ATP probe binding, KiNativ profiling, refers to: domain 1 activation loop	THP-1 cell lysate	0.04 mM		inhibition	18%
CC(C)C[C@H](NC(=O)C[C@H](O)[C@H](CC(C)C)NC(=O)[C@H](Cc1c[nH]cn1)NC(=O)CNC(=O)[C@@H](NC(=O)[C@H](C)NC(=O)[C@H](Cc1c[nH]c2ccccc12)NC(=O)[C@H](CCC(N)=O)NC(=O)[C@@H](Cc1ccccc1)NC(=O)COCCOCCNC(=O)CCC(C(=O)O)N1CCN(CC(=O)O)CCN(CC(=O)O)CCN(CC(=O)O)CC1)C(C)C)C(N)=O (stereo partly shown) [lutetium-177 labelled]			BALB/c nu/nu mice, muscle	intravenous, 50 pmol, 1 h, with: PA 300 µg		tissue uptake	0.14 ± 0.07 %ID/g
O=C1c2ccccc2C(=O)N1CCCc1nc(-c2cccc([N+](=O)[O-])c2)no1			octanol/buffer	pH 11, known kinase inactives set		logP	2.27
Cn1cc(-c2ccc(-c3cncc(Cl)c3N3CCC4(CCNC4=O)CC3)cc2)cn1	COLO 205	gene expression, microarray, refers to: CXCL16 mRNA		concentration not given, 2 h	reference: untreated cells	log2 fold change	2.37
COc1ccc(C(O)COc2ccc(-c3csc(-c4ccc(OCC(O)c5ccc(OC)c(OC)c5)cc4)n3)cc2)cc1OC (stereo not shown)			C57BL/6J mice, plasma	oral, 75 mg/kg		tlast	48 h
N#Cc1ccc2c(c1)[C@H]1CCCN(C(=O)c3ccc4[nH]cnc4c3)[C@H]1C2			human	20 mg, end of trial		maximum ACTH level	10.6 pmol/L
Oc1ccc(/C=C/c2cc(O)cc(O)c2)cc1			rat, azoxymethane-injected, blood	in vivo, 100 mg/kg, at sacrifice		AST level	270 IU/L and 172 IU/L and 291 IU/L
COc1ccc2nc(-c3ccccn3)c(N(C)c3ccc(F)cc3)n2c1			CD1 mouse, male, fasted, plasma	oral, 50 mg/kg, with: ABT 50 mg/kg		CL/F	634 mL/min/kg
CCc1nc(C(N)=O)c(Nc2ccc(N3CCC(N4CCN(C)CC4)CC3)c(OC)c2)nc1NC1CCOCC1			mouse plasma	425 ng/mL, 22 days, -80 °C		long-term stability accuracy	98.7%
Nc1nc(NC2CC2)c2ncn([C@H]3C=C[C@@H](CO)C3)c2n1			Tat+ transgenic mouse, plasma	subcutaneous osmotic pump, dose not given, 5 d		drug concentration	1520 ± 184 ng/mL
CN[C@H](CC(C)C)C(=O)N[C@H]1C(=O)N[C@@H](CC(N)=O)C(=O)N[C@H]2C(=O)N[C@H]3C(=O)N[C@H](C(=O)N[C@H](C(=O)O)c4cc(O)cc(O)c4-c4cc3ccc4O)[C@H](O)c3ccc(c(Cl)c3)Oc3cc2cc(c3O[C@@H]2O[C@H](CO)[C@@H](O)[C@H](O)[C@H]2O[C@H]2C[C@](C)(N)[C@H](O)[C@H](C)O2)Oc2ccc(cc2Cl)[C@H]1O	Enterococcus faecalis	agar dilution	compound-intermediate	20 isolates		MIC50	8 µg/mL (≈ 5.52 µM)
CCCCCCCCNc1cc(=O)n(C)c(=O)n1C	FFAR4	agonist, β-arrestin recruitment	CHO cells	10 µM	reference: 30 µM TUG-891	agonist effect	1%
C=CC(=O)NC1CCN(c2ncc3ncnc(Nc4ccc(Oc5ccc6c(c5)ncn6C)c(C)c4)c3n2)CC1			healthy male volunteers, plasma	oral tablet, 60 mg, dose-normalised AUC(0-tz), adjusted geometric mean	reference: oral over intravenous microtracer	absolute bioavailability (AUC ratio)	77%
O=C1NCCc2nc(OCc3cccc(F)c3)ccc21		refers to: skin color	Sprague-Dawley rat male	oral, 100 mg/kg, 0 min	reference: baseline, direction not given	Irwin test score	0
O=c1cc(N2CCC(Cc3ccccc3)CC2)[nH]c(=O)[nH]1	FFAR4	antagonist, β-arrestin recruitment	CHO cells	10 µM		inhibition	-13 ± 7%
O=[N+]([O-])c1ccc(-c2ccc(O)cc2)c2cccnc12			male ICR mouse, plasma	oral, 5 mg/kg		CL/F	2490 mL/min/kg
COc1cc(OC)c(NC(=O)CSc2nnc(-c3ccncc3)n2C)cc1Cl			octanol/buffer	pH 11, known kinase inactives set		logP	1.76

Some of these lines once more:
SMILES	tested on	test	system	conditions	how to read	measurement	value
CC(C)C[C@H](NC(=O)C[C@H](O)[C@H](CC(C)C)NC(=O)[C@H](Cc1c[nH]cn1)NC(=O)CNC(=O)[C@@H](NC(=O)[C@H](C)NC(=O)[C@H](Cc1c[nH]c2ccccc12)NC(=O)[C@H](CCC(N)=O)NC(=O)[C@@H](Cc1ccccc1)NC(=O)COCCOCCNC(=O)CCC(C(=O)O)N1CCN(CC(=O)O)CCN(CC(=O)O)CCN(CC(=O)O)CC1)C(C)C)C(N)=O (stereo partly shown) [lutetium-177 labelled]			BALB/c nu/nu mice, muscle	intravenous, 50 pmol, 1 h, with: PA 300 µg		tissue uptake	0.14 ± 0.07 %ID/g
O=C1c2ccccc2C(=O)N1CCCc1nc(-c2cccc([N+](=O)[O-])c2)no1			octanol/buffer	pH 11, known kinase inactives set		logP	2.27
Cn1cc(-c2ccc(-c3cncc(Cl)c3N3CCC4(CCNC4=O)CC3)cc2)cn1	COLO 205	gene expression, microarray, refers to: CXCL16 mRNA		concentration not given, 2 h	reference: untreated cells	log2 fold change	2.37
COc1ccc(C(O)COc2ccc(-c3csc(-c4ccc(OCC(O)c5ccc(OC)c(OC)c5)cc4)n3)cc2)cc1OC (stereo not shown)			C57BL/6J mice, plasma	oral, 75 mg/kg		tlast	48 h
